Measurements pooled from the literature.
A part holds a random share of what one study measured.

Series 1
Target: Centromere-binding protein 1, full length, N-terminal tag (CBF1, Saccharomyces cerevisiae, UniProt P17106, residues 1-351)
Chain of UniProt P17106 (whole entry, looked up): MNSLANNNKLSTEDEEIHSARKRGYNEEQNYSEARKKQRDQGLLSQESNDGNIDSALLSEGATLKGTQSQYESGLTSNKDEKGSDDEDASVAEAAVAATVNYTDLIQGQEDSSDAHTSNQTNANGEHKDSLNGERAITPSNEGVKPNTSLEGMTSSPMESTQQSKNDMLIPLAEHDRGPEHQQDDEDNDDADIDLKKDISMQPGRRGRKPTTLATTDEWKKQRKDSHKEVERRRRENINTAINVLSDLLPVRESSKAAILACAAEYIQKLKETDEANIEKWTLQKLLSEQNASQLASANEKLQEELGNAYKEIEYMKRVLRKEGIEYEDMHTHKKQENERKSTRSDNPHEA
Technique: protein-binding microarray
Molecule type: double-stranded DNA, one strand shown
Sample: in vitro
Concentration: 0.8 µM
Notes: whole 60-bp probe, no competitor
Reading: higher = stronger binding
Shared flanks, not repeated: … GTCTTGATTCGCTTGACGCTGCTG
Sequence | fluorescence intensity
CTAATAGTACTTGTACATCAGACAAGGATGAATTTC | 505 a.u.
CTACACCATTCGGGGCAGGTGACGAAGCAAGAGTTC | 1580 a.u.
CTAGCCATTAAAGATCTGGTGGCCCCGACAAAATTC | 489 a.u.
CTATGAATATACTGCAACGTGCCTATTGAATCCTTC | 749 a.u.
GAATGCAGGTAGAATCTGATGAATCCTGGCACGTAG | 517 a.u.
GAACTATTACATTACAACGTGCATATAACAGAATAG | 681 a.u.
GAAAAATTCTAAATACACGCCACATAAAGAAGGTAG | 547 a.u.
GAACCTTTATTTCATCGCGTGATTGAGGAGCATTAG | 1550 a.u.
CTATTATTGAAAGTGAACGTGATCCAGAACCGCTTC | 1750 a.u.
GAAAGAAGAGGACATCATGTCTGCGGTTCCTGCTAG | 492 a.u.
CCTAACTACTATATACACGTGGAATAGCTTCGTACA | 1810 a.u.
CTATTTTCTTCAACCCACATGGGACTATAAGAGTTC | 598 a.u.
CCTAACTACTATAGTTCACGTGCATAGCTTCGTACA | 4790 a.u.

Series 2
Target: Ras GTPase-activating protein-binding protein 1, C-terminal RGG region (G3BP1, Homo sapiens, UniProt Q13283)
Chain of UniProt Q13283 (whole entry, looked up): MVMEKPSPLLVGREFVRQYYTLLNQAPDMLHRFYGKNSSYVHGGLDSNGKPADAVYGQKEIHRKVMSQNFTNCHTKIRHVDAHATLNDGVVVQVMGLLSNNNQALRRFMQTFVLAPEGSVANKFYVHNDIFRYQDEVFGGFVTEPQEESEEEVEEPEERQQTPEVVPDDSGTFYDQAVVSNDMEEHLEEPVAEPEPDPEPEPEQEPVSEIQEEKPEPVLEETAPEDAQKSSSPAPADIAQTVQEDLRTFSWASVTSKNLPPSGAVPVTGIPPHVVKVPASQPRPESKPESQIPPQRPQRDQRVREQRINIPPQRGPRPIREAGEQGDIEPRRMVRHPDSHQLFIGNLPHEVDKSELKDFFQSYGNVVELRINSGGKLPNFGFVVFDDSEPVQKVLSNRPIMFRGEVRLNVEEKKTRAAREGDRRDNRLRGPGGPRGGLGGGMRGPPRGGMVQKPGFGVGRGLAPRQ
Technique: RNA Bind-n-Seq
Molecule type: RNA
Sample: in vitro
Concentration: 1 µM
Notes: whole 134-nt RNA, ends assumed
Together with: 150 mM KCl
Relative to: input library
Reading: higher = stronger binding
Shared flanks, not repeated: GGGAGUUCUACAGUCCGACGAUC … UGGAAUUCUCGGGUGUCAAGG
Sequence | log2 enrichment
UUAGAAGAAGAAGAUGGAGUGUGGGAGAAUGGACUUUCCUAUGAAUGCCGUACUCUGCUUUUCAAAGCAGUUCACAAUCUAUUGGAACGG | -1.94
CUGUGCUACACAUCGUAUGUACCGAAUCGGUUUUUUUGGGUUUUUUUGGGUUUUUUUGGGGAAAGUAUUAUGUUACGCCGUUCGGAUCUG | -1.22
GCAGGAAGUAAAAACAAAUGGAAAUGCUUCGGAUAGUGGCAGGGGUGGGGGUUGCUAAGGAAAGGGUGGGAUUGGAGUGGGUAAAGAGUU | 1.65
AGUCCUGUGCUACACAUCGUAUGUACCGAAUCGGGGUGGGGAGGGGAAAAAAAGGGGAAAGUAUUAUGUUACGCCGUUCGGAUCUGCACU | 1.55
CCUCAAGUCCUGUGCUACACAUCGUAUGUACCGAAUCGGUGGAAAAAGGAGGAAAGUAUUAUGUUACGCCGUUCGGAUCUGCACUUCCAG | -0.637
CACAGACAACACGCACCCACACAGACACAGAGGGAAGGGGUUAAAAUGGGGACAGGGUGCACAGCAGGGCGGGGUAGGACCCCAGCCCCU | -0.447
UCCUGUGCUACACAUCGUAUGUACCGAAUCAAAUUUUUUUAAAUUUUUUUAAAUUUAAAAAAGUAUUAUGUUACGCCGUUCGGAUCUGCA | -1.89
UGUGCUACACAUCGUAUGUACCGAAUCGGGGAAAAAAAGGAAAAAAAGGGGAAAAAAAGGGGAAAGUAUUAUGUUACGCCGUUCGGAUCU | -0.949
ACCAUGCAGGUGGGCAUCUUUGGGAAGUGGGGCAAAGGGGGGAUAGGGAGGGGGGUAACACUUUGGGAACAGGUGGUCCCAGGUCGUUUC | -0.868
UGUGGAUGCCCUGCUGAAGAAGUCUGAGGCCCAGCAUGAACAGCCGGAAGAUGGAUGCCCCUUUGGUGCCCUGACGCAGCGCCUCCUGCA | -0.136
GGCACAGGUGCCCGACCAUACACUGGGAAAGUUGGUGCUGAGGAUGCCGAUGGGAUUGACAUGGCCUACCGGGUGCUGGCUGACCACGCU | -1.31
UGGGAGGUGGAUUUUGUUUAUUUUUUUAGCUCAUUUCCAGGGGAGGGAAUUUUUUUUUAAUAUGUGUCAUGAAUAAAGUUGUUUUUGAAA | 2.91
ACCAUGCAGGUGGGCAUCUUUGGGAAGUGGGGCAAGGGGGGGAUAGGGAGGGGGGUAACACUUUGGGAACAGGCGGUCCCAGGUCGUUUC | 2.2
GCAGGAAGUAAAAACAAAUGGAAAUGCUUCGGAUAGUGGCAGGGGUGGGGGUUGCUAAGGAAAGGGUGGGCUGGGAGUGGGUAAAGAGUU | 2.32

Series 3
Target: Histone acetyltransferase KAT6A, both winged helices, GST fusion (KAT6A, Homo sapiens, UniProt Q92794, residues 1-181)
Technique: protein binding microarray
Molecule type: double-stranded DNA, one strand shown
Sample: in vitro
Concentration: not given
Notes: 8-mer, flanks averaged, mean of 2 arrays, mostly near background
Relative to: not given
Reading: higher = stronger binding
Construct (chain): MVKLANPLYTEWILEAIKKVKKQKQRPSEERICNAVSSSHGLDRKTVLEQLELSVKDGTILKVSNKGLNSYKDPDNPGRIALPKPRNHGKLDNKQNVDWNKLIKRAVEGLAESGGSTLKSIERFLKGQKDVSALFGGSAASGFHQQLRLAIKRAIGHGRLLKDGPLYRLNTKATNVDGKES
Sequence | E-score
ATGCTGCA | -0.164
AGGAAGCG | 0.0975
CTGGCGGC | 0.237
AATGCCAC | -0.226
ACCCCACA | -0.216
CATACCAG | -0.224
AACGTATA | 0.0636
CGATTTAG | 0.148
CGGGAGCC | 0.135
ACCACACC | -0.0945
GTGCTTAA | -0.0858
GAACTGAA | 0.077
GTCGCACA | 0.136
AAACGAGC | -0.0831
AAGGTGTA | -0.0475
GATCCTCA | -0.0365
AGTCATAG | -0.163
AGACGCCT | -0.00235
ATAGCGTG | 0.0888
CCCTCCCC | 0.0951
CTCACCGA | -0.0865
CGTATGTC | 0.129
AAGTTGAT | -0.0583
CGTCGGCC | 0.22

Series 4
Target: Interferon regulatory factor 7, full length, phosphomimetic (IRF7, Homo sapiens, UniProt Q92985, residues 1-503, S101K/S471D/S472D/S475D/S476D/S477D/S483D/S484D/S487D)
Technique: protein-binding microarray
Molecule type: double-stranded DNA, one strand shown
Sample: in vitro
Concentration: 250 nM
Notes: 60-bp whole probe
Together with: salmon DNA 0.4 mg/ml
Relative to: random background probes
Reading: higher = stronger binding
Shared flanks, not repeated: GCCTAGCAC … GTCTTGATTCGCTTGACGCTGCTG
Construct (chain): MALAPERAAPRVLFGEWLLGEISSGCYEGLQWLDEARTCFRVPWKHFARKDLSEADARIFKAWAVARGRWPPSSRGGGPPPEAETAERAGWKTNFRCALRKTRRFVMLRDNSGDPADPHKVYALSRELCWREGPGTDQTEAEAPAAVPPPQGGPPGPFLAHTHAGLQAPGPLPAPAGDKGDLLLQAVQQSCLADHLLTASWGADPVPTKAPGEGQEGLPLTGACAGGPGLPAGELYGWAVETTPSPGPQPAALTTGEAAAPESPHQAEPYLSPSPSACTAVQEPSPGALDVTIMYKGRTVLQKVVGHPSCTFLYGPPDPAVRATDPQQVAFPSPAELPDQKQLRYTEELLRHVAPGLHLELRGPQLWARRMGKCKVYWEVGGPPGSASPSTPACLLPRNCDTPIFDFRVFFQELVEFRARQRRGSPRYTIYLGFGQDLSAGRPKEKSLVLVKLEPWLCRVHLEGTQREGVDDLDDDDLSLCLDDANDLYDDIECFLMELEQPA
Sequence | log fluorescence [z-score]
TTAGGGTTCGGTATCGGTTAGTGCTAG | 2.55
CACGGACTGCTACTGCTGACGTGCTAG | -0.757
TCATTTTTACTTTCTGAACTGTGCTAG | 1.44
TACGATATCAGACTGGAGACGTGCTAG | -0.331
TTAGGTTTACTTATCCTTTAGTGCTAG | 0.402
CTAGGTTCCGGTTTCGGTTAGTGCTAG | 11.2
TTTGAACTGGGGACTGGATTAGTGCTA | -0.514
TTAGAACTGGGGTGTCGATTAGTGCTA | -0.451
TTTGGTTTCGGGTTTCGGTTAGTGCTA | 13.2
TTAGGTTTCGACTTTCGGTGAGTGCTA | 10.5
TTAGGAGTGGGTATCGGTTAGTGCTAG | 0.24
TTAGGTGTCGACACTGGGTTAGTGCTA | -0.487
ATAAACTTAGTTTTCAATTTGTGCTAG | 1.35
GACAGACTGCTTATCCTGACGTGCTAG | -0.149
TTAGAACTGAGTTCCGATTAGTGCTAG | 0.869
GACGGACCGGACACTGGGGACGTGCTA | -0.796
GACGGTATCCGTCTCCTGACGTGCTAG | -0.598
GCTGGTCTCTAACTCAAGATGTGCTAG | -0.325
TCATCTTGTTCTCTCTGACTGTGCTAG | 0.639
TGCCTTTTGCTTTACTGATGGTGCTAG | 0.592
AATTAAATGATATATATCCATGTGCTA | 0.475
TTAAGTATCGACACTGGGTTAGTGCTA | -0.0521
GACGATTTCGGGTAGCGAGACGTGCTA | 0.455

Series 5
Target: Prothrombin, mature alpha-thrombin (F2, Homo sapiens, UniProt P00734)
Technique: aptamer microarray, sandwich
Molecule type: DNA with 2'F-ANA
Sample: in vitro
Concentration: 200 nM
Notes: whole 15-mer aptamer, many near background
Together with: Cy3 exosite-II aptamer, 400 nM
Reading: higher = stronger binding
Sequence: GGTTGGTGTGGTTGG
Modification | mean fluorescence intensity
2'F-ANA at 2 8 9 11 12 13 14 15 | 158 a.u.
2'F-ANA at 1 5 6 8 10 11 13 | 49.9 a.u.
2'F-ANA at 2 3 7 8 11 12 | 1040 a.u.
2'F-ANA at 3 6 10 11 12 | 576 a.u.
2'F-ANA at 1 3 8 10 11 12 14 15 | 57.8 a.u.
2'F-ANA at 1 5 12 15 | 108 a.u.
2'F-ANA at 3 5 6 7 9 10 11 12 15 | 62.3 a.u.
2'F-ANA at 2 4 5 6 7 8 9 10 15 | 46 a.u.
2'F-ANA at 2 4 8 9 10 11 13 | 79 a.u.
2'F-ANA at 3 4 6 9 10 11 12 14 | 185 a.u.
2'F-ANA at 2 4 5 6 7 8 13 15 | 80.8 a.u.
2'F-ANA at 4 7 9 11 | 469 a.u.
2'F-ANA at 2 3 4 7 8 9 14 | 325 a.u.
2'F-ANA at 1 2 9 10 15 | 53.7 a.u.
2'F-ANA at 1 7 10 11 14 | 46.9 a.u.
2'F-ANA at 1 2 3 5 10 11 12 14 15 | 60.7 a.u.
2'F-ANA at 2 4 6 8 11 12 13 | 328 a.u.
2'F-ANA at 1 4 5 6 7 9 10 13 15 | 50 a.u.
2'F-ANA at 1 2 4 6 8 9 13 14 | 49.4 a.u.
2'F-ANA at 1 2 3 4 5 7 9 10 15 | 49.6 a.u.
2'F-ANA at 4 8 11 12 13 14 | 115 a.u.
2'F-ANA at 1 2 5 7 8 10 13 15 | 131 a.u.
2'F-ANA at 1 3 5 7 8 9 11 13 14 | 47.7 a.u.
2'F-ANA at 1 2 3 4 5 6 7 13 14 | 49.2 a.u.
2'F-ANA at 3 6 8 12 14 | 760 a.u.
